Results gathered from unrelated publications.
Each numbered part is a random draw from the data of one study; scales do not carry over between parts.

Study 1
Target: Histone acetyltransferase KAT6A, winged helix 1, GST fusion (KAT6A, Homo sapiens, UniProt Q92794, residues 1-85)
Method: protein binding microarray
Form: double-stranded DNA, one strand shown
Sample: in vitro
Concentration: not given
Notes: 8-mer, flanks averaged, mean of 2 arrays, mostly near background
Reference: not given
Reading: higher = stronger binding
Measurement: E-score
Construct (chain): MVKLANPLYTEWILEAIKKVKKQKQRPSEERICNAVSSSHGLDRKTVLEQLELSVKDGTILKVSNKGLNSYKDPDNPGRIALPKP
TCGGGCCA: 0.0929
CACACGAA: -0.0754
AGGAGTAT: -0.198
TCAGAGAA: -0.177
TAGCTCCA: -0.188
TACTTAGA: -0.126
AGATACGA: -0.0866
AGTCAACG: -0.0412
GGGGCCTA: 0.0611
GATTCCTA: -0.016
AAATCAAG: -0.0788
CATGCCGA: 0.222
GCTACAGA: -0.196
AAGTGCTG: -0.23
CAGGTTCG: -0.136
AATGGCGC: 0.18
CACCGTCC: 0.25
ACATAGAT: -0.0828
CGACCGGC: 0.224
GCTTGGGA: -0.182
GTCCGGAA: -0.0242
GAACAAAC: -0.129
GAAGACGA: -0.038
CATTTAGG: -0.0886
AGCCGAGA: 0.0433

Study 2
Target: Protein C-ets-1 (ETS1, Homo sapiens, UniProt P14921, residues 1-441, full length assumed)
Sequence of UniProt P14921 (whole entry, looked up): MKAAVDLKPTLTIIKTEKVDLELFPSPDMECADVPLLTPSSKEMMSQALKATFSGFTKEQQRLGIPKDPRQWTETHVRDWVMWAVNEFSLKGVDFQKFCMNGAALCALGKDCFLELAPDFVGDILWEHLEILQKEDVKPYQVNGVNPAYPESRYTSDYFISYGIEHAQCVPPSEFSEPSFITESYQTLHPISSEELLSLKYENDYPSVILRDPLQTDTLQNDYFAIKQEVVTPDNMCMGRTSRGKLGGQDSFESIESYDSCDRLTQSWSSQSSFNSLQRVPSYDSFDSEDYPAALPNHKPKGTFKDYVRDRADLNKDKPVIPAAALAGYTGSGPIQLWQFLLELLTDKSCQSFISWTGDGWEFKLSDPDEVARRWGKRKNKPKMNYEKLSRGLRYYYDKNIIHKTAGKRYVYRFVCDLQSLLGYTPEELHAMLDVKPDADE
Method: protein-binding microarray
Form: double-stranded DNA, one strand shown
Sample: in vitro
Concentration: not given
Notes: k-mer, scored over probes, only values ≥0.25
Reading: higher = stronger binding
Measurement: E-score
ATCATCCG: 0.353
CGGATCTA: 0.263
CCCTTCCG: 0.469
TAACCGGA: 0.466
CGCGTATC: 0.251
CGGATAAC: 0.372
ACAACGGA: 0.323
GGAGGAAA: 0.367
CCGGTGCA: 0.351
CGCCAGGA: 0.304
AGGCGGGG: 0.252
GCGGACGC: 0.39
TTCAGGAA: 0.331
ACGGATGA: 0.29
GCACCGGA: 0.458
CCGGACAA: 0.317
GGACATCC: 0.428
GGAACCGA: 0.309
CAAGGATG: 0.294
GGAGGGGA: 0.314
CGGACACA: 0.288
GATGTGAC: 0.35
GGGCCGGA: 0.451
TGAGGAAA: 0.316
CCGGTACG: 0.294

Study 3
Target: RING finger protein unkempt homolog, zinc fingers 1-6, GST-SBP tag (UNK, Homo sapiens, UniProt Q9C0B0, residues 30-357)
Sequence of UniProt Q9C0B0 (30-357, looked up): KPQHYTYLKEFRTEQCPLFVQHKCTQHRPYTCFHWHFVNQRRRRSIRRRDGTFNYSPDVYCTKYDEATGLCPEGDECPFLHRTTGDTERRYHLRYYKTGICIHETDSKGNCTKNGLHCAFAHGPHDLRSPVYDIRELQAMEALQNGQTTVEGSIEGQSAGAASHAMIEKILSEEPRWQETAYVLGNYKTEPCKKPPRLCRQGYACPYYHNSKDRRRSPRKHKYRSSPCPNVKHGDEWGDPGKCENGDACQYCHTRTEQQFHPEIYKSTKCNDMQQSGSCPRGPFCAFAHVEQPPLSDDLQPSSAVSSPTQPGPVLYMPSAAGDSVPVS
Method: RNA Bind-n-Seq
Form: RNA
Sample: in vitro
Concentration: not given
Notes: RNA with constant flanks, ends assumed
Reference: input RNA pool
Reading: higher = stronger binding
Measurement: bound/input enrichment
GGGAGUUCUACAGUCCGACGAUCAACGAGGCUUCGAAAGCACACGUUAGAAGCAGAUGGAGAUGUGGCUGGGGCAUCAGGAGGACCCGAGAUGGUGGAUGUGAAAGGGAAGCCACCAUGUGGCUCUUGUCUUCAAUGGUAUCCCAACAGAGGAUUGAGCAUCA: 0.154 ratio
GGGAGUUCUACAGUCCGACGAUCCCCAACAACACAGUAGUUGGGUCAUCAUAUGUACUUUUUGUCUUAUCAAUUUUCUUUACAACCGCCGGACUUCUAUUUGCUGGCAAAGUUUGUUUACCAGGCUGAUGAAUGUCUAAAUUGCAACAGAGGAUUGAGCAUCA: 0.205 ratio
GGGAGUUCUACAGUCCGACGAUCGCAUUUGUAGAAGGAGUGGUUAAGAAAGUAGCUCAAUACAUGGCUGAUGUAUUGGAAGACCGCAAAGACAAAGUUCAAGAGAAUCUGUUGGCUAAUGGAGUGGACUUGGUUACUUAUAUACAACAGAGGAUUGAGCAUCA: 0.352 ratio
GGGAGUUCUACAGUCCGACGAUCAGGUUGGGUCAUGACCCCUACAGGUUAGGCCAUGAUGCUUACAGGUUAGGACAAGACCCUUACCGAUCCGGCCAUGAUCCCUACAGACUAACUCCGGAUCCCUAUAGGGUAUCACCUAGGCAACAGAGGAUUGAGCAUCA: 0.155 ratio
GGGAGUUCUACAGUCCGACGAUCCUCAUGGCUGCAGAAACAGGAAGUGGAAAAACUGGUGCAUUUAGUAUUCCCGUUAUCCAGACCGUGUAUGAAACUCUGAAAGACCAACAGGAAGGAAAGAAAGGGAAAACAACUAUUAAACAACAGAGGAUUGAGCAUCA: 0.55 ratio
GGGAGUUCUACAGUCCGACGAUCGGUGUAGAAUUGGGUUCAGUUUGGCAAAGACUUGGUGCAGAUGUGACAGCAGUUGAAUUUUCCGGUCAUGUAGGUGGAGUUGGAAUUGAUAUGGAGAUAUCUAAAAACUUUCAACGCAUCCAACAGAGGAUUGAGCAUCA: 0.385 ratio
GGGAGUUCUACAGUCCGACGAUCCGAAUGUUUGCUUACUUCCGACGCAAUGCAGCCACGUGGAAGAAUGCAGUGCGUCAUAAUCUCCGUCUCCACAAGUGUUUUGUGCGAGUAGAGAACGUUAAAGGGGCAGUAUGGACAGUGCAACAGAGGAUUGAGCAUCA: 0.199 ratio
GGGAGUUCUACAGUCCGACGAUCAUUAUAAGAGAAACAGAAAAUGAUGACCUUACCAAUGUAAUUCAGAAAAUGAUCUGUGAAUACCGUGAAGAAGUUACUCCUAUUGCAGUAGAAAUGACACAACAUUUGGCAAUGACAUUUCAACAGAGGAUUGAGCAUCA: 0.179 ratio

Study 4
Target: RNA binding protein fox-1 homolog 2, RRM domain, GST-SBP tag (RBFOX2, Homo sapiens, UniProt O43251-10, residues 100-194)
Method: RNA Bind-n-Seq
Form: RNA
Sample: in vitro
Concentration: 365 nM
Notes: natural RNA segment, single round, ends assumed
Reference: no-protein control
Reading: higher = stronger binding
Measurement: RBNS enrichment (R)
Target sequence (chain): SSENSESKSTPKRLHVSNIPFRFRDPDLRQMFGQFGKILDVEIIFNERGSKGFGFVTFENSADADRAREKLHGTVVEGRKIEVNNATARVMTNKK
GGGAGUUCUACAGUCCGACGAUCAGUUUUCACAAAUUCCUCAUGUACUUUGAAUAUAACAUAAAGUUCGACAAAAUCUAUUCUAAUGUGGCUUUUUAUGGAGGGUGUAACUGUAAUGUAUUCAAAAUUGUCAGUGGAAUUCUCGGGUGCCAA: 0.512
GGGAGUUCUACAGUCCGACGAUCUUACAGGUGAUCGCUGGUCUCCUGCCUCCACCUCCUGAGUGCUGGGGUUACAGGUGAUCGCUGGUCUCCUGCCUCCACCCCCUGAGUGCUGGGGUUACAGGUGUGAUCACUGGAAUUCUCGGGUGCCAA: 0.201
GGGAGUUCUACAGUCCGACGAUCACCGCCUAUCACGCCGACUGCUUCCCGAGGCCCCGGGUGGGCUAAGGGGCUGGGUCUGCUUCACCAAUCACCCAACCUGAGUCCCCCAGCUUUACCACAGAGCUGCCAACUGGAAUUCUCGGGUGCCAA: 0.305
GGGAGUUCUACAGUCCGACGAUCUCUCCCACAACACGUGGGAAUUCUGGUAGAUACAAUUUCAAGUUGAGAUUUGGGUGGGGACAUAGCCAAACCAUAUCAUUCUACCCCUGGCCCCUCCAAAUCUCAUGUCCUGGAAUUCUCGGGUGCCAA: 0.37
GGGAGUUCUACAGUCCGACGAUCCUUUCUCCUUUCAAAAAAUGUCUACUUUGUUUUGGUCCUAGGCAUUAGGUAAUAUAACUGAUAAUAUACUGAAACAUAUAAUGGAAGAUGCAGAUGAUAAAACUAAUUUUUGGAAUUCUCGGGUGCCAA: 0.477
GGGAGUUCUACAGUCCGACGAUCCAAUUCUUAUUCGCCAUUUCAAUACCUAGAGAUAGAGAGUCUUGUAUUUGAAGCCACACACACUGGUGUAAUAUGCUUAGUACUCUAGGUCAAGGAUUUGUUGGUAAAUGUGGAAUUCUCGGGUGCCAA: 0.561
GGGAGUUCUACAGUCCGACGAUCCAUACUCAUGUUUUACAUCUUUUCUUUCUGCCGCUCGGCUCCGGCCAUUUUGUUUUAUACAAAAAUGGGAAAAAAAAAAAAGAAAUUAUAUAAAGUUCCUAGAGUCGGUGUGGAAUUCUCGGGUGCCAA: 0.476
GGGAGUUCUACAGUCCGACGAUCAGAAGCUGUGGGGCUGCCUGCCAGGCAGGAUCAUGGCUGCCAUCAAGCCUUUUCUGGAUCCAGCCAUCAAGGACAUGUUUGUGGUGUGAUGCACACUUUUGCAAGCGUGUUGGAAUUCUCGGGUGCCAA: 0.323

A few entries again (study 1):
TAGCTCCA: -0.188
AGATACGA: -0.0866
GGGGCCTA: 0.0611
CAGGTTCG: -0.136
TCAGAGAA: -0.177
